Measured values collected from several papers.
Several values in a cell are separate wells, animals, samples, runs or records. Numbers after ± are the reported error.

| Compound | tested on | test | test system | conditions | how to read | quantity | value |
| --- | --- | --- | --- | --- | --- | --- | --- |
| CC(C)c1cnc(-c2cc(Cl)ccc2F)cc1Nc1ccncc1C(=O)NC(CO)CO | – | monotherapy, item: nausea | human patients | oral, dose not given, grade 1, phase I A | – | patients with treatment-related adverse event | 9.5% |
| COCCOCCOCCOc1ccc(/C=C/c2c(I)c(C)c3n2[B-](F)(F)[N+]2=C(C)C(I)=C(C)C2=C3c2cc(OC)cc(OC)c2)cc1 | – | – | DMSO | – | – | Stokes shift | 613 cm⁻¹ |
| O=C1c2sc(-c3ccc(N4CCC(CO)CC4)nc3F)nc2CCN1c1cccnc1 | – | PET imaging | rhesus monkey, whole brain | intravenous bolus | – | time to peak uptake | 4.5 min |
| O=C([O-])CN1CCN(CC(=O)[O-])CCN(CC(=O)NCC2CCC(C(=O)NC(Cc3ccc4ccccc4c3)C(=O)NCCCCC(NC(=O)NC(CCC(=O)O)C(=O)O)C(=O)O)CC2)CCN(CC(=O)[O-])CC1.[44Sc+3] (stereo not drawn) | – | PET/CT dosimetry, OLINDA/EXM | human, liver | – | – | residence time | 0.253 h and 0.067 h and 0.292 h |
| CC(=O)N[C@H](CC(=O)O)C(=O)N[C@H](Cc1c[nH]c2ccccc12)C(=O)N[C@H](Cc1ccccc1)C(=O)N[C@H](CCCCN)C(=O)N[C@H](C)C(=O)N[C@H](Cc1ccccc1)C(=O)N[C@H](Cc1ccc(O)cc1)C(=O)N[C@H](CC(=O)O)C(=O)N[C@H](CCCCN)C(=O)N[C@@H](C(=O)N[C@H](C)C(=O)N[C@H](CCC(=O)O)C(=O)N[C@H](CCCCN)C(=O)N[C@H](Cc1ccccc1)C(=O)N[C@H](CCCCN)C(=O)N[C@H](CCC(=O)O)C(=O)N[C@H](C)C(=O)N[C@H](Cc1ccccc1)C(N)=O)C(C)C | – | – | statin-treated high-risk CHD women, plasma | oral, 500 mg daily, day 13, 0 to 8 h, mean, all subjects | – | AUC(0-t) | 523 ng·h/mL |
| C=CC(=O)Nc1cc(Nc2nccc(-c3cn(C4CC4)c4ccccc34)n2)c(OC)cc1N(C)CCNC | – | LC-RAM/HRMS | human male, plasma | oral, 110 mg, 10 h | relative to: total radioactivity | share of radioactivity | 3.45% |
| CCCCCCCCCCCCCCCC(=O)N[C@@H](CCCCN)C(=O)N[C@@H](CCCCN)C(=O)N[C@@H](CO)C(=O)N[C@@H](CCCNC(=N)N)C(=O)N[C@@H](C)C(=O)N[C@@H](CC(C)C)C(=O)N[C@@H](Cc1ccccc1)C(N)=O | – | – | cynomolgus monkey, female | intravenous infusion, 3 mg/kg daily, day 1, 1 h infusion | – | aPTT | 27.2 ± 2.7 s |
| CNC(=O)N[C@]1(C)CCC[C@@]2(C)C3CC[C@@]4(C)C[C@]3(CCC21)CC4=O (single isomer, unassigned) | – | – | processed rat plasma | 40 ng/mL, 24 h, room temperature, autosampler stability | – | measured concentration | 44.1 ± 0.59 ng/mL |
| NC12CNCCNCC(NCc3ccc(CNC(=O)CCCC(=O)NCc4ccc(-c5nncnn5)cc4)cc3)(CNCCNC1)CNCCNC2.[64Cu+2] | – | OLINDA dosimetry | pancreas | 24 h pretargeting interval, added: huA33-TCO pretargeting | – | mean absorbed dose | 0.0391 rad/mCi |
| COc1cc(N(C)CCN(C)C)c(NC(=O)CCSCC(NC(C)=O)C(=O)O)cc1Nc1nccc(-c2cn(C3CC3)c3ccccc23)n1 (stereo not drawn) | – | radio-HPLC | human, urine | dose not given, 0 to 48 h, sample holds 2.97% dose | relative to: sample radioactivity | share of radioactivity | 0.39% |
| CCCCCC(O)C=CC1OC2OC(C1CC=CCCCC(=O)O)C2(F)F (stereo not drawn) | – | – | 50 mM HCl/KCl buffer with DMSO | concentration not given, pH 1.80 | – | hydrolysis half-life | 3.5 h |
| CCCCCCNC(=O)[O][Pt]([NH2])([NH2])([Cl])([Cl])[O]C(=O)CCC(=O)Nc1ccc2c(C)cc(=O)oc2c1 | – | fluorescence | PBS | 10 µM, added: ascorbic acid 10 equivalents | – | onset time of ligand release | ≤ 4 h |
| COC(=O)C(c1ccccc1Cl)N1CCC2SC(=O)C=C2C1 (stereo not drawn) | – | LC-MS/MS | human plasma | 50 ng/mL, after freeze-thaw cycles | – | measured concentration | 51 ± 3.9 ng/mL |
| CCOc1ccc2c(c1)C(C)=CC(C)(C)N2c1cc(OCC)cc2c1NC(C)(C)C=C2C | – | LC-MS/MS | piglets, muscle | oral, 50 mg/kg feed of ethoxyquin, 42 days | – | residue concentration | 31.6 ± 17.5 ng/g |
| COC(=O)c1ccc(-c2cn(Cc3cc(Cl)ccc3O[11CH3])nn2)cc1 | – | PET, two-tissue compartment model | rhesus monkey, brain Insula | dose not given | – | distribution volume | 0.619 mL/cm³ |
| CCCC(CCC)NC(=O)c1ccc(O)c(OS(=O)(=O)O)c1 | – | LC-MS extracted ion chromatogram | Sprague-Dawley rat, male and female, pooled plasma | oral, 200 mg/kg, 1 h | – | peak area | 515000 cps |
| CCOC(=O)CCC(=O)Oc1ccc(/C=C/C(=O)/C=C(O)/C=C/c2ccc(OC(=O)CCC(=O)OCC)c(OC)c2)cc1OC | – | – | dog plasma | 1.5 µM | relative to: plasma over buffer pH 7.4 | hydrolysis rate constant ratio | 60 |
| CC(C)C[C@@H]1NC(=O)[C@@H]2CCCN2C(=O)[C@H](CO)NC(=O)[C@@H](NC(=O)[C@H](Cc2c[nH]cn2)NC(=O)[C@H](CO)NC(=O)[C@H](Cc2ccc(O)cc2)NC(=O)[C@H](CC(=O)O)NC(=O)CNC(=O)CN2CCN(CC(=O)O)CCN(CC(=O)O)CCN(CC(=O)O)CC2)CSSC[C@@H](C(=O)N[C@H](C(=O)N[C@@H](Cc2ccc(O)cc2)C(=O)N2CCC[C@H]2C(=O)N[C@@H](CC(=O)O)C(=O)N2CCC[C@H]2C(=O)N[C@@H](CCC(=O)O)C(=O)NCC(=O)NCC(=O)NCC(N)=O)[C@@H](C)O)NC(=O)[C@H](CCCCN)NC(=O)[C@H](Cc2c[nH]c3ccccc23)NC(=O)[C@H](Cc2c[nH]c3ccccc23)NC(=O)[C@@H]2CCCN2C(=O)[C@H](Cc2ccc(O)cc2)NC(=O)[C@H](Cc2ccc(O)cc2)NC(=O)[C@H](CCCNC(=N)N)NC1=O [gallium-68 labelled] | – | PET/CT | male NOD-SCID mice, heart | intravenous, 3.7 MBq, 90 min | – | SUVmax | 0.58 ± 0.11 SUV |

| Compound | tested on | test | test system | conditions | how to read | quantity | value |
| --- | --- | --- | --- | --- | --- | --- | --- |
| C=CC(=O)Nc1cc(Nc2nccc(-c3cn(C4CC4)c4ccccc34)n2)c(OC)cc1NC | – | LC-RAM/HRMS | human male, plasma | oral, 110 mg, 10 h | relative to: total radioactivity | share of radioactivity | 3.45% |
| CC(C)C[C@@H](NC(=O)[C@H](NC(=O)[C@H]1CCCN1)[C@H](C)O)C(=O)N[C@H](Cc1c[nH]cn1)C(=O)N[C@@H](C(=O)N[C@H](Cc1c[nH]cn1)C(=O)N[C@H](CC(N)=O)C(=O)N[C@H](CCCNC(=N)N)C(=O)N[C@H](CCCNC(=N)N)C(=O)N[C@H](CCCNC(=N)N)C(=O)N[C@H](CCCNC(=N)N)C(=O)N[C@H](CCCNC(=N)N)C(N)=O)[C@H](C)O | – | – | Beagle dog, CSF | oral, 20 mg/kg | – | Cmax | 13 ± 15 ng/mL |
| OCc1cn(Cc2ccc(-c3noc(-c4ccc(OCC[18F])c(C(F)(F)F)c4)n3)cc2)nn1 | – | – | female Lewis rat, muscle | intravenous, 5 min | – | tissue uptake | 0.39 ± 0.04 %ID/g |
| CCNC(=O)OCc1c(COC(=O)NCC)c(-c2ccc(OC)cc2)n2c1Cc1ccccc1-2 | – | – | BALB/c nude mice, blood | dose not given, day 10 | – | AST activity | 60 ± 6.3 U/L |
| COC(=O)c1ccc(CCc2cc3cc4nc(c(OC)c5[nH]c(cc6nc(cc2[nH]3)CC6(C)C)cc5CCCNC(=O)OC(C)(C)C)C(=O)C4(C)C)cc1 | – | – | DMF | room temperature | – | Qy emission FWHM | 26 nm |
| CCCC[C@H](NC(=O)[C@H](CC(C)C)N(C)C(=O)CNC(=O)[C@@H](NC(=O)[C@H](Cc1ccccc1)NC(=O)[C@H](CCCCN)NC(=O)[C@@H](N)CC(=O)O)C(C)C)C(N)=O | – | – | anaesthetised minipig | intranasal, 30 or 100 µg/kg | – | mean arterial pressure | no effect |
| CC(C)[C@H](NC(=O)[C@@H]1CCCN1C(=O)[C@H](CCCNC(=N)N)NC(=O)[C@H](CS)NC(=O)[C@H](Cc1c[nH]c2ccccc12)NC(=O)[C@H](CCCNC(=N)N)NC(=O)[C@@H](Cc1ccccc1)NC(=O)[C@H](Cc1c[nH]cn1)NC(=O)[C@H](CCC(=O)O)NC(=O)[C@H](CS)NC(=O)[C@H](CS)NC(=O)[C@@H]1CC(=O)N[C@@H](CCCNC(=N)N)C(=O)NCC(=O)N[C@@H](CC(=O)O)C(=O)N[C@H](Cc2ccc(O)cc2)C(=O)N1)C(N)=O [technetium-99m labelled] | – | – | C57 mouse, female, B16/F1 melanoma | intravenous, 0.037 MBq, 2 h | relative to: tumour over lung | tumour to tissue ratio | 10.5 |
| CCCC(CCC)NC(=O)c1ccc(O)c(OC)c1 | – | LC-MS extracted ion chromatogram | Sprague-Dawley rat, male and female, pooled plasma | oral, 200 mg/kg, 1 h | – | peak area | 1.61e+07 cps |
| CC(=O)[CH](C(C)=O)[Pt-2]1([S+](C)C)[O]C(C)=CC(C)=[O+]1 (stereo not drawn) | – | – | rat, blood | intravenous, 5 mg/kg, single dose | – | ALT | 31.3 ± 6.5 U/L |
| COc1cc(CNC(=O)C[C@H](C)CCC=C(C)C)ccc1OCc1cn(-c2ccc([N+](=O)[O-])cc2)nn1 | SF-295 CNS cancer cells | SRB | – | 10 µM, 48 h | – | growth percent | 70.2% |
| COc1ccc([C@@H]2CC(=O)c3c(O)cc(O[C@@H]4O[C@H](CO[C@@H]5O[C@@H](C)[C@H](O)[C@@H](O)[C@H]5O)[C@@H](O)[C@H](O)[C@H]4O)cc3O2)cc1O | – | – | rat plasma | 31.25 ng/mL, three freeze-thaw cycles | – | measured concentration | 30.47 ± 0.29 ng/mL |
| [11CH3]c1ccc2nc(C3CCC3)n(-c3ccc4[nH]ncc4c3)c2n1 | – | – | human male, lungs | – | – | absorbed radiation dose | 3.6 µSv/MBq |
| O=C(CCc1ccc(CNC(C(=O)OC2CCCC2)C2CCCCC2)cn1)NO (stereo not drawn) | – | – | human, plasma | oral, 10 mg single dose, geometric mean | – | AUC(0-t) | 32.3 ng·h/mL |
| CCCC(CCC(=O)O)NC(=O)c1ccc2c(c1)OCO2 (stereo not drawn) | – | LC-MS | Sprague-Dawley rats, pooled sexes, plasma | oral, 200 mg/kg of parent drug, 1 h | relative to: total peak area | metabolite peak area | 2.04% |
| Cn1c(=O)oc2ccc(-c3ccc(CC(C#N)NC(=O)C4CNCCCO4)c(F)c3)cc21 (stereo not drawn) | – | item: aspartate aminotransferase increased | human volunteers | oral, dose not given | – | treatment-emergent adverse event incidence | 3.7% |
| NC[C@@H](C(=O)Nc1ccc(-c2cn[nH]c2)cc1)c1ccccc1 | – | OECD 405 eye irritation | New Zealand White rabbit, eye | topical, 0.1%, 8 h (day 1), scale 0 to 2 | direction not given | iris score | 0 |
| COCCOCCOCCOCCOCCOCCOCCOCCC(=O)NCCCc1cc2cc3nc(cc4[nH]c(cc5nc(c(OC)c1[nH]2)C(=O)C5(C)C)cc4CCc1ccc(C(=O)O)cc1)CC3(C)C | – | – | water with 5% DMF | room temperature | – | internal conversion yield | 0.45 |
| O=C([O-])CN1CCN(CC(=O)[O-])CCN(C(CCC(=O)NCCCCCN(CCCC[C@H](NC(=O)N[C@@H](CCC(=O)O)C(=O)O)C(=O)O)C(=O)c2ccc(I)cc2)C(=O)O)CCN(CC(=O)[O-])CC1.[68Ga+3] (stereo partly drawn) | – | – | healthy volunteers and patients | dose not given | – | vital signs and laboratory parameters | no effect |

Repeated from above:
| Compound | tested on | test | test system | conditions | how to read | quantity | value |
| --- | --- | --- | --- | --- | --- | --- | --- |
| COc1cc(CNC(=O)C[C@H](C)CCC=C(C)C)ccc1OCc1cn(-c2ccc([N+](=O)[O-])cc2)nn1 | SF-295 CNS cancer cells | SRB | – | 10 µM, 48 h | – | growth percent | 70.2% |
| C=CC(=O)Nc1cc(Nc2nccc(-c3cn(C4CC4)c4ccccc34)n2)c(OC)cc1NC | – | LC-RAM/HRMS | human male, plasma | oral, 110 mg, 10 h | relative to: total radioactivity | share of radioactivity | 3.45% |
| COc1cc(N(C)CCN(C)C)c(NC(=O)CCSCC(NC(C)=O)C(=O)O)cc1Nc1nccc(-c2cn(C3CC3)c3ccccc23)n1 (stereo not drawn) | – | radio-HPLC | human, urine | dose not given, 0 to 48 h, sample holds 2.97% dose | relative to: sample radioactivity | share of radioactivity | 0.39% |
| CCCC(CCC)NC(=O)c1ccc(O)c(OS(=O)(=O)O)c1 | – | LC-MS extracted ion chromatogram | Sprague-Dawley rat, male and female, pooled plasma | oral, 200 mg/kg, 1 h | – | peak area | 515000 cps |
